Experimental data collected from several papers.
Parts stem from different laboratories: compare values within a part only. Positions count from the first letter of the parent shown.

Series 1
Target: CCNE2, cyclin fold, Cln2 fusion (human)
Technique: yeast growth competition, sequencing
Medium: yeast
Setting: strong parent motif
Baseline: not given
Reading: higher = stronger binding
Starting sequence: E2F1 docking peptide (human); PPVKRRLDFETDH; partner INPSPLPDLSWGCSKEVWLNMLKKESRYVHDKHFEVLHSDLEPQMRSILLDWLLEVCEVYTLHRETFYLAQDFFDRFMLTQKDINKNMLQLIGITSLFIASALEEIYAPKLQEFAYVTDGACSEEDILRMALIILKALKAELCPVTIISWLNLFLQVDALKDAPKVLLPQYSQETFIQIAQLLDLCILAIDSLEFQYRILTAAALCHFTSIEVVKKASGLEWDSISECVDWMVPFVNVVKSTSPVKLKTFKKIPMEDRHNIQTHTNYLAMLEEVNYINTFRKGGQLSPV
Substitution	normalised enrichment score
L7M	1.08
E10M	5.8
L7P	0.122
P2L	4.83
T11H	5.81
D8S	5.01
R5S	-0.205
D12V	6.55
R5A	0.333
T11S	5.89
E10F	5.4
V3Y	3.7
R6D	-0.119
L7E	0.218
E10S	6.07

Series 2
Target: RNA binding protein fox-1 homolog 2, RRM domain, GST-SBP tag (RBFOX2, Homo sapiens, UniProt O43251-10, residues 100-194)
Technique: RNA Bind-n-Seq
Molecule type: RNA
Medium: in vitro
Tested at: 365 nM
Setting: natural RNA segment, single round, ends assumed
Baseline: no-protein control
Reading: higher = stronger binding
Shared flanks, not repeated: GGGAGUUCUACAGUCCGACGAUC … UGGAAUUCUCGGGUGCCAA
Residues (chain): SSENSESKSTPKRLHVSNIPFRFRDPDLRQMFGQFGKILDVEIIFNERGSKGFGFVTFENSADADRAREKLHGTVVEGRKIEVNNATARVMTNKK
Sequence	RBNS enrichment (R)
AUAAAAUGGAUGCCCUUCAUGUUUUAUUGCUAUUACUAAAUGUCAAGAUUGUAUGCUAUUAUGUCUUGUAAAAAUUCCUUCUGUUGGUGUAAAUAUGGAAAUGCCACAUU	3.12
CGGUGGCUGGUCUUCCAUUUACAGUGUCACUAUUCCUUGAUGGAGCAGUUAUGUGCCCGCUCUGGUGAUGGCCCCAGCCAGUGAUGCUAGGCCUAAUUGUUCAUCAUCAA	0.822
CCUUCAUUUAACUCUUUGAAACUGUAUCAUCUUUGCCAAGUAAGAGUGGUGGCCUAUUUCAGCUGCUUUGACAAAAUGACUGGCUCCUGACUUAACGUUCUAUAAAUGAA	0.544
AAAUAUCAUGGAUUGAACCUCAUCAAUUGAUAGCAGUGAGUGACUGAAGCUUCCAAAUCAAGAAAAGCCGGCACCAAGAACUUCCAUUCUAAUCUAGAGCUGACCAGUUU	0.309
UAUCUAUAUCCAUAUGGAUGGAUAGGUAGGUAGAUCUUCAUAGAUUUUUUUUUCUUUUGUUAGAGGAGAGCUUGAUGUGAUUAUCUUCAAACCCACCAAACCAACAGGAU	0.329
AUAAAAUGAAAUUUGUUUCUCAUGAUAUGAAUCUUGCAGGUAAGAUGUAGGGUUUAUUGAAAAUGUGUGGGUUAAAUGCUUUCAGGUACACCAAUUCUUUCUACUAAAUU	0.455
UUUAAAACUUGAGCCCUGGACCUUUUGUCCUAUGUGUGUGGAUUCCAGGGCAACUCUAGCAUCAGAGCAAAAGCCUUGGGUUUCUCGCAUUCAGUGGCCUAUCUCCAGAU	0.48
UUAAAUGGCAUGUGGCCCUUCCUUGUUUCAGUGACUUAGAAAAGUAAAAGCCAUUUAAAAAAGUUAGCAAGAUUUUUUAUCGACUUCCCAACUGGGCUUCCAGCCUUGUU	0.535
UGUUUUUGUUUUGUUUUUGUUUUUUGUUUUUUACAUAGUACCUUGAAAAUUAUGAAUUUUUUAUCCAUUACUAACCUUUAAUUUAAUCAAUCAUGUACUUUAGUUUAAUG	0.873
UUUGUACAAUAUUUAACAAUCACUUAUCCAAGGUGGGGUUUUAUGGGGAUUUUAAGCUUUCUGUUAAAUACUUGCAGAAAAAAUAGCAAGUACGAUUUGACAGUAGUACA	0.591
AUUUAUUAUUAAUUUAUUGGGGUGACCUUCUUGGGGACUCGGGGGCUGGUCUGAUGGAACUGUGUAUUUAUUUAAAACUCUGGUGAUAAAAAUAAAGCUGUCUGAACUGU	0.721
UCCCUUACUGUUGCUGGGAGCCUCGCCCUUUGUCCCAACUGGGUAGAGCCCCCAGGUGCUGUUUGCUCAGGAGGCUGCUGUGGGGGUGCCUUCCUCAGCCUCUGGCCCUC	0.34

Series 3
Target: ABI1, truncated, D143A, DHFR fusion (Arabidopsis thaliana)
Technique: DHFR PCA, deep sequencing
Medium: yeast
Setting: methotrexate growth selection, single substitutions
Added: (+)-ABA 1.4 µM
Baseline: wild-type fitted maximum
Reading: higher = stronger binding
Starting sequence: PYL1, truncated, DHFR fusion (Arabidopsis thaliana); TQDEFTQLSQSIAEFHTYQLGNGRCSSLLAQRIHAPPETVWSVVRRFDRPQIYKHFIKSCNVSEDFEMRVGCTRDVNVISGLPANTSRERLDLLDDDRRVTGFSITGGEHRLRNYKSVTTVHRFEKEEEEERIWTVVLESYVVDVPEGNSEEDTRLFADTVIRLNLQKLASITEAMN
Substitution	relative binding score [%]
L112D	-8.09
G23W	5.66
G108Y	-21.6
S87L	9.62
P146Y	-22.4
D159E	27.1
N114S	7.29
D96C	-7.88
S80D	8
F66K	19.8
R24C	25.3
V142K	-14.8
I162Y	-1.6
V137W	2.33

Other studies, line by line
Substance	target	assay	test system	setting	scale	quantity	result
PhoQ, residues 284 288 289 292 302 303 SLGVVW	PhoP, residues 12 14 15 18 19 NMSSL (Escherichia coli, UniProt P23836)	Sort-seq, refers to: YFP reporter	E. coli	PhoQ-PhoP variant library, added: 10 µM Mg2+	baseline: high Mg2+ state, higher = stronger signaling	fold induction	21.8

Repeated from above (series 2):
Sequence	RBNS enrichment (R)
CGGUGGCUGGUCUUCCAUUUACAGUGUCACUAUUCCUUGAUGGAGCAGUUAUGUGCCCGCUCUGGUGAUGGCCCCAGCCAGUGAUGCUAGGCCUAAUUGUUCAUCAUCAA	0.822
CCUUCAUUUAACUCUUUGAAACUGUAUCAUCUUUGCCAAGUAAGAGUGGUGGCCUAUUUCAGCUGCUUUGACAAAAUGACUGGCUCCUGACUUAACGUUCUAUAAAUGAA	0.544
AAAUAUCAUGGAUUGAACCUCAUCAAUUGAUAGCAGUGAGUGACUGAAGCUUCCAAAUCAAGAAAAGCCGGCACCAAGAACUUCCAUUCUAAUCUAGAGCUGACCAGUUU	0.309
